{"data": "Experimental data from different studies", "TDP1": "Tyrosyl-DNA phosphodiesterase 1 (TDP1, Homo sapiens, UniProt Q9NUW8)", "UniProt Q9NUW8, sequence (whole entry, looked up)": "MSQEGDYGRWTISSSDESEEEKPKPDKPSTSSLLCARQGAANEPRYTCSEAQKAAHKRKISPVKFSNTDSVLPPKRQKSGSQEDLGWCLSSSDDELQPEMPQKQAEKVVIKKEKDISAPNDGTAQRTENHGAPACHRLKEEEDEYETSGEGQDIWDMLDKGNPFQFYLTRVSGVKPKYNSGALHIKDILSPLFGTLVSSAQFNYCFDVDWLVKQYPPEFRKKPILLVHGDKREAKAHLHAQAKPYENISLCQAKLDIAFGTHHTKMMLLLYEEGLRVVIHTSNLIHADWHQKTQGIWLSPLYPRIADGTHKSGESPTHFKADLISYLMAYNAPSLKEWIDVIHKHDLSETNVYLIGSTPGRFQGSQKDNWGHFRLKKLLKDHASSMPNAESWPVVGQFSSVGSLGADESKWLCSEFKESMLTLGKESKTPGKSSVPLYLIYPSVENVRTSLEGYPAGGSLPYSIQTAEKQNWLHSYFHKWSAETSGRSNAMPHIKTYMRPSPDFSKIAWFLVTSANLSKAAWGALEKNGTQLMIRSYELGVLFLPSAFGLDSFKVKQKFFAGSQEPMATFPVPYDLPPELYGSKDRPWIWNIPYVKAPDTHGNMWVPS"}
{"Structure (SMILES)": "CCC(CC)CNC(=N)NC(=N)NCCCCCCNC(=N)NC(=N)NCC(CC)CC", "test": "metabolic stability", "test system": "rat, liver microsomes", "conditions": "2 µM", "endpoint": "half-life", "result": "36.6 min"}
{"Structure (SMILES)": "CN(C)C(=O)c1ccnc(N2Cc3cn(Cc4ccc(F)cc4Cl)nc3C2)n1", "test": "metabolic stability", "test system": "rat, liver microsomes", "endpoint": "half-life", "result": "123 min"}
{"Structure (SMILES)": "Cn1c(C=NOCc2ccc(-c3nc4cc(-c5ccccc5)ccn4c3Nc3ccc(C(=O)O)cc3)cc2)c(Cl)c2ccccc21 (mixture of isomers)", "target or system": "TDP1", "test": "enzyme activity, inhibitor", "conditions": "100 µM, unpurified compound", "endpoint": "inhibition", "result": "41.4%"}
{"Structure (SMILES)": "CC(C)(C)n1ncc2c(=O)n(Cc3cccc(F)c3)c(NCc3ccc(Cl)cn3)nc21", "test": "metabolic stability", "test system": "rat, liver microsomes", "endpoint": "half-life", "result": "29 min"}
{"Structure (SMILES)": "O=C(O)c1ccc(Nc2c(-c3ccccc3)nc3ccc(CON=Cc4cccc(NC(=O)c5ccc(Cl)cc5)c4)cn23)cc1", "target or system": "TDP1", "test": "enzyme activity, inhibitor", "conditions": "100 µM, unpurified compound", "endpoint": "inhibition", "result": "0.2%"}
{"Structure (SMILES)": "C=C(NC(=O)c1csc(-c2nc3c(cc2O)-c2nc(cs2)C(=O)NC(C(C)O)C(=O)NC(=C(C)OC)c2nc(cs2)C(=O)NC2c4nc(cs4)C(=O)NC(COC(=O)c4c5c6c(cccc6n4O)COC(=O)C(OC4CC(C)(O)C(N(C)C)C(C)O4)C2OC5)c2nc-3cs2)n1)C(N)=O (stereo not shown)", "test": "metabolic stability", "test system": "rat, liver microsomes", "conditions": "2 µM", "endpoint": "half-life", "result": "806 min"}
{"Structure (SMILES)": "CC(C)(C)n1ncc2c(=O)n(Cc3cccc(F)c3)c(NCc3ccc(F)cn3)nc21", "test": "metabolic stability", "test system": "rat, liver microsomes", "endpoint": "half-life", "result": "327 min"}
{"Structure (SMILES)": "O=C(c1ccnc(N2Cc3cn(Cc4ccc(F)cc4)nc3C2)n1)N1CCCCC1", "test": "metabolic stability", "test system": "rat, liver microsomes", "endpoint": "half-life", "result": "19 min"}
{"Structure (SMILES)": "CNC(=O)C1CCCN(C(=O)C2CC3CCC2N3C(=O)[C@@H]2C[C@@H](O)CN2C(=O)NCc2cccc(Cl)c2F)C1 (mixture of isomers)", "test": "metabolic stability", "test system": "rat, liver microsomes", "endpoint": "half-life", "result": "317 min"}
{"Structure (SMILES)": "Cc1ncsc1-c1ccc([C@@H]2CCCCCCNC(=O)C[C@@H]3N=C(c4ccc(cc4)OCCCCCC(=O)N[C@@H](C(C)(C)C)C(=O)N4C[C@H](O)C[C@H]4C(=O)N2)c2c(sc(C)c2C)-n2c(C)nnc23)cc1", "test": "metabolic stability", "test system": "rat, liver microsomes", "conditions": "1 µM", "endpoint": "half-life", "result": "81.5 min"}
{"Structure (SMILES)": "CC(C)(C)n1ncc2c(=O)n(Cc3cccc(F)c3)c(NCc3cc(Cl)ccn3)nc21", "test": "metabolic stability", "test system": "rat, liver microsomes", "endpoint": "half-life", "result": "4.3 min"}
{"Structure (SMILES)": "O=c1c(-c2cnn(-c3ccc(Cl)cc3)c2)c(C(F)(F)F)oc2c(O)c(O)ccc12", "test": "metabolic stability", "test system": "rat, liver microsomes", "endpoint": "half-life", "result": "> 500 min"}
{"Structure (SMILES)": "CN(C)C(=O)c1ccnc(N2Cc3cn(Cc4cc(F)cc(F)c4)nc3C2)n1", "test": "metabolic stability", "test system": "rat, liver microsomes", "endpoint": "half-life", "result": "907 min"}
{"Structure (SMILES)": "O=C(Nc1cc(-c2ccnc3[nH]ccc23)c(Cl)cn1)[C@H]1CCC[C@@H](NC(=O)C(F)(F)F)C1", "test": "metabolic stability", "test system": "rat, liver microsomes", "endpoint": "half-life", "result": "34.8 min"}
{"Structure (SMILES)": "CC(=O)Nc1ccnc(N2Cc3cnn(Cc4ccc(F)cc4)c3C2)n1", "test": "metabolic stability", "test system": "rat, liver microsomes", "endpoint": "half-life", "result": "47 min"}
{"Structure (SMILES)": "C[C@@H](Nc1nc2c(cnn2C(C)(C)C)c(=O)n1Cc1cccc(F)c1)c1ccc(Cl)cc1", "test": "metabolic stability", "test system": "rat, liver microsomes", "endpoint": "half-life", "result": "18.9 min"}
{"note": "For quick reference, copied from above:"}
{"Structure (SMILES)": "CC(=O)Nc1ccnc(N2Cc3cnn(Cc4ccc(F)cc4)c3C2)n1", "test": "metabolic stability", "test system": "rat, liver microsomes", "endpoint": "half-life", "result": "47 min"}
{"Structure (SMILES)": "Cn1c(C=NOCc2ccc(-c3nc4cc(-c5ccccc5)ccn4c3Nc3ccc(C(=O)O)cc3)cc2)c(Cl)c2ccccc21 (mixture of isomers)", "target or system": "TDP1", "test": "enzyme activity, inhibitor", "conditions": "100 µM, unpurified compound", "endpoint": "inhibition", "result": "41.4%"}
